Assay results of several laboratories.
Each line is one published result; not all experiments were run side by side.
T1: PSMG1/PSMG2 heterodimer (Homo sapiens); chain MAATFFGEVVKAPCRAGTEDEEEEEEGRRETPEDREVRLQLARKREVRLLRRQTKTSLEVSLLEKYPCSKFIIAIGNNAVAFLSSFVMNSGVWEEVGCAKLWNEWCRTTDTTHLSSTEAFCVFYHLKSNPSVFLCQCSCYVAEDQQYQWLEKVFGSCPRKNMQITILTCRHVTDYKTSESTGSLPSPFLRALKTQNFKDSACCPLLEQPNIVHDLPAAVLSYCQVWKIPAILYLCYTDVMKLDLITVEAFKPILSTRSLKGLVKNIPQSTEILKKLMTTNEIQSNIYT; chain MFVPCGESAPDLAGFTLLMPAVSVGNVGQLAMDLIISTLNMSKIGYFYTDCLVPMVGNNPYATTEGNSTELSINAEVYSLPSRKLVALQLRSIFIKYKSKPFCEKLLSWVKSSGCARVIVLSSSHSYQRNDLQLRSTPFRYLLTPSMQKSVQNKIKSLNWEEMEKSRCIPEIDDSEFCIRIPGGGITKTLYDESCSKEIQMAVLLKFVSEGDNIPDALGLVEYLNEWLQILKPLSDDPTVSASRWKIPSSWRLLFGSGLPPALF
B1: dnaJ2 (Thermus thermophilus, UniProt Q56237); sequence looked up; chain MAAKKDYYAILGVPRNATQEEIKRAYKRLARQYHPDVNKSPEAEEKFKEINEAYAVLSDPEKRRIYDTYGTTEAPPPPPPGGYDFSGFDVEDFSEFFQELFGPGLFGGFGRRSRKGRDLRAELPLTLEEAFHGGERVVEVAGRRVSVRIPPGVREGSVIRVPGMGGQGNPPGDLLLVVRLLPHPVFRLEGQDLYATLDVPAPIAVVGGKVRAMTLEGPVEVAVPPRTQAGRKLRLKGKGFPGPAGRGDLYLEVRITIPERLTPEEEALWKKLAEAYYARA
B2: ND6 1-185 (Yarrowia lipolytica, UniProt Q9B6E9); sequence looked up; chain MMYLTYYFIEITIFLAILCTIFIISAKNPMVSILYMIALFVIAAMYLYLIGLGIFSLLYIMIYIGAIAVLFLFIITLLDINSTELSVKSNIRDLPLVLISLIVLTISGLMIYSNDSILINKLLEAFGNDYNTIITQDWFNIENTTLLTTIGNVLLTNNAFILLVLAIVLLLGIIGPISITMKHKE
B3: POLDIP2 52-368 (Homo sapiens, UniProt Q9Y2S7); sequence looked up; chain SSRNRPEGKVLETVGVFEVPKQNGKYETGQLFLHSIFGYRGVVLFPWQARLYDRDVASAAPEKAENPAGHGSKEVKGKTHTYYQVLIDARDCPHISQRSQTEAVTFLANHDDSRALYAIPGLDYVSHEDILPYTSTDQVPIQHELFERFLLYDQTKAPPFVARETLRAWQEKNHPWLELSDVHRETTENIRVTVIPFYMGMREAQNSHVYWWRYCIRLENLDSDVVQLRERHWRIFSLSGTLETVRGRGVVGREPVLSKEQPAFQYSSHVSLQASSGHMWGTFRFERPDGSHFDVRIPPFSLESNKDEKTPPSGLHW
B4: STBD1 200-358 (Homo sapiens, UniProt O95210); chain HEEWEMVPRHSSWGDVGVGGSLKAPVLNLNQGMDNGRSTLVEARGQQVHGKMERVAVMPAGSQQVSVRFQVHYVTSTDVQFIAVTGDHECLGRWNTYIPLHYNKDGFWSHSIFLPADTVVEWKFVLVENGGVTRWEECSNRFLETGHEDKVVHAWWGIH
B5: PRDX6 (Homo sapiens, UniProt P30041); sequence looked up; chain MPGGLLLGDVAPNFEANTTVGRIRFHDFLGDSWGILFSHPRDFTPVCTTELGRAAKLAPEFAKRNVKLIALSIDSVEDHLAWSKDINAYNCEEPTEKLPFPIIDDRNRELAILLGMLDPAEKDEKGMPVTARVVFVFGPDKKLKLSILYPATTGRNFDEILRVVISLQLTAEKRVATPVDWKDGDSVMVLPTIPEEEAKKLFPKGVFTKELPSGKKYLRYTPQP
B6: SNAPC3 (Homo sapiens, UniProt Q92966); chain MAEGSRGGPTCSGVGGRQDPVSGSGGCNFPEYELPELNTRAFHVGAFGELWRGRLRGAGDLSLREPPASALPGSQAADSDREDAAVARDLDCSLEAAAELRAVCGLDKLKCLEDGEDPEVIPENTDLVTLGVRKRFLEHREETITIDRACRQETFVYEMESHAIGKKPENSADMIEEGELILSVNILYPVIFHKHKEHKPYQTMLVLGSQKLTQLRDSIRCVSDLQIGGEFSNTPDQAPEHISKDLYKSAFFYFEGTFYNDKRYPECRDLSRTIIEWSESHDRGYGKFQTARMEDFTFNDLCIKLGFPYLYCHQGDCEHVIVITDIRLVHHDDCLDRTLYPLLIKKHWLWTRKCFVCKMYTARWVTNNDSFAPEDPCFFCDVCFRMLHYDSEGNKLGEFLAYPYVDPGTFN
B7: acpP crypto-AcpP 1-78 (Escherichia coli, UniProt P0A6A8); Ser36 phosphopantetheine fluorophore analog; chain MSTIEERVKKIIGEQLGVKQEEVTNNASFVEDLGADSLDTVELVMALEEEFDTEIPDEEAEKITTVQAAIDYINGHQA
B8: POLR2A 1356-1767 (Homo sapiens, UniProt P24928); sequence looked up; chain RTTSNDIVEIFTVLGIEAVRKALERELYHVISFDGSYVNYRHLALLCDTMTCRGHLMAITRHGVNRQDTGPLMKCSFEETVDVLMEAAAHGESDPMKGVSENIMLGQLAPAGTGCFDLLLDAEKCKYGMEIPTNIPGLGAAGPTGMFFGSAPSPMGGISPAMTPWNQGATPAYGAWSPSVGSGMTPGAAGFSPSAASDASGFSPGYSPAWSPTPGSPGSPGPSSPYIPSPGGAMSPSYSPTSPAYEPRSPGGYTPQSPSYSPTSPSYSPTSPSYSPTSPNYSPTSPSYSPTSPSYSPTSPSYSPTSPSYSPTSPSYSPTSPSYSPTSPSYSPTSPSYSPTSPSYSPTSPSYSPTSPSYSPTSPSYSPTSPSYSPTSPSYSPTSPSYSPTSPNYSPTSPNYTPTSPSYSPTSP
B9: PUM1 589-1186 (Homo sapiens, UniProt Q14671); chain ISSSAAQAAVAAAAASANGAAGGLAGTTNGPFRPLGTQQPQPQPQQQPNNNLASSSFYGNNSLNSNSQSSSLFSQGSAQPANTSLGFGSSSSLGATLGSALGGFGTAVANSNTGSGSRRDSLTGSSDLYKRTSSSLTPIGHSFYNGLSFSSSPGPVGMPLPSQGPGHSQTPPPSLSSHGSSSSLNLGGLTNGSGRYISAAPGAEAKYRSASSASSLFSPSSTLFSSSRLRYGMSDVMPSGRSRLLEDFRNNRYPNLQLREIAGHIMEFSQDQHGSRFIQLKLERATPAERQLVFNEILQAAYQLMVDVFGNYVIQKFFEFGSLEQKLALAERIRGHVLSLALQMYGCRVIQKALEFIPSDQQNEMVRELDGHVLKCVKDQNGNHVVQKCIECVQPQSLQFIIDAFKGQVFALSTHPYGCRVIQRILEHCLPDQTLPILEELHQHTEQLVQDQYGNYVIQHVLEHGRPEDKSKIVAEIRGNVLVLSQHKFASNVVEKCVTHASRTERAVLIDEVCTMNDGPHSALYTMMKDQYANYVVQKMIDVAEPGQRKIVMHKIRPHIATLRKYTYGKHILAKLEKYYMKNGVDLGPICGPPNGII
B10: exbD 43-141 (Escherichia coli, UniProt P0ABV2); sequence looked up; chain VDVKVNLPASTSTPQPRPEKPVYLSVKADNSMFIGNDPVTDETMITALNALTEGKKDTTIFFRADKTVDYETLMKVMDTLHQAGYLKIGLVGEETAKAK
B11: WRKY46 (Arabidopsis thaliana, UniProt Q9SKD9); sequence looked up; chain MMMEEKLVINELELGKELANRLMNNLKHTSSVDSNKTLISDILRIYQNAIFMLSFNQDKNILKRSLEIDGKDSKNVFKKRKVSEKNTEKVKVFVATEQENGSIDDGHCWRKYGQKEIHGSKNPRAYYRCTHRFTQDCLAVKQVQKSDTDPSLFEVKYLGNHTCNNITSPKTTTNFSVSLTNTNIFEGNRVHVTEQSEDMKPTKSEEVMISLEDLENKKNIFRTFSFSNHEIENGVWKSNLFLGNFVEDLSPATSGSAITSEVLSAPAAVENSETADSYFSSLDNIIDFGQDWLWS
B12: HypB N-terminal extension 2-76 (Escherichia coli, UniProt P0AAN3); chain CTTCGCGEGNLYIEGDEHNPHSAFRSAPFAPAARPKMKITGIKAPEFTPSQTEEGDLHYGHGEAGTHAPGMSQRRW
B13: PUM1 701-774 (Homo sapiens, UniProt Q14671); sequence looked up; chain TGSGSRRDSLTGSSDLYKRTSSSLTPIGHSFYNGLSFSSSPGPVGMPLPSQGPGHSQTPPPSLSSHGSSSSLNL
Sequence of UniProt Q39204 (whole entry, looked up): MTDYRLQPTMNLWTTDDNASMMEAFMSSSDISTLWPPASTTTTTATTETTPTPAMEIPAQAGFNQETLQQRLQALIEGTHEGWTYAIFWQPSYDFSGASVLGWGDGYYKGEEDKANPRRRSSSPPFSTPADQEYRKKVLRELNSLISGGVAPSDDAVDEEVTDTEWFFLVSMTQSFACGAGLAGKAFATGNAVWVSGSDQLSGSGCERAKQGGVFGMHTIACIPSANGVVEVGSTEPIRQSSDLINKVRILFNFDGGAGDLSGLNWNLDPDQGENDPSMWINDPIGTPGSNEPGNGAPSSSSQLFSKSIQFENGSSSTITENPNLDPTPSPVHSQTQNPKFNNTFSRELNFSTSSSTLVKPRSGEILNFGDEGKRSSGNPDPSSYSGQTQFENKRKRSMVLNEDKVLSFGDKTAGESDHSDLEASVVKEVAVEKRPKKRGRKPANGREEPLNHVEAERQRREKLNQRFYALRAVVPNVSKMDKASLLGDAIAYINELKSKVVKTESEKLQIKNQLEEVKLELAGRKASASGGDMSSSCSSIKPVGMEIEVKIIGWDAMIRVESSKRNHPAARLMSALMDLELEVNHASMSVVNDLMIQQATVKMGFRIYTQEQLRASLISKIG
Sequence of UniProt Q9B6E8 (whole entry, looked up): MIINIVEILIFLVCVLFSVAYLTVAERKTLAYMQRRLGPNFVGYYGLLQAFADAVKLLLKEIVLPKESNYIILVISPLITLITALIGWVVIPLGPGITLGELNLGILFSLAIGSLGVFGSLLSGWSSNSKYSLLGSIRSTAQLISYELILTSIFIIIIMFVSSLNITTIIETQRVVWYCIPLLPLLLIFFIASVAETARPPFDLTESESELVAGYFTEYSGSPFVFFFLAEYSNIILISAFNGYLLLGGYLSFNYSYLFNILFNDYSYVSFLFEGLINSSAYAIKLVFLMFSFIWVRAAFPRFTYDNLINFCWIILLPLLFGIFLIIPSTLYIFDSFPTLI
Sequence of UniProt O43823 (whole entry, looked up): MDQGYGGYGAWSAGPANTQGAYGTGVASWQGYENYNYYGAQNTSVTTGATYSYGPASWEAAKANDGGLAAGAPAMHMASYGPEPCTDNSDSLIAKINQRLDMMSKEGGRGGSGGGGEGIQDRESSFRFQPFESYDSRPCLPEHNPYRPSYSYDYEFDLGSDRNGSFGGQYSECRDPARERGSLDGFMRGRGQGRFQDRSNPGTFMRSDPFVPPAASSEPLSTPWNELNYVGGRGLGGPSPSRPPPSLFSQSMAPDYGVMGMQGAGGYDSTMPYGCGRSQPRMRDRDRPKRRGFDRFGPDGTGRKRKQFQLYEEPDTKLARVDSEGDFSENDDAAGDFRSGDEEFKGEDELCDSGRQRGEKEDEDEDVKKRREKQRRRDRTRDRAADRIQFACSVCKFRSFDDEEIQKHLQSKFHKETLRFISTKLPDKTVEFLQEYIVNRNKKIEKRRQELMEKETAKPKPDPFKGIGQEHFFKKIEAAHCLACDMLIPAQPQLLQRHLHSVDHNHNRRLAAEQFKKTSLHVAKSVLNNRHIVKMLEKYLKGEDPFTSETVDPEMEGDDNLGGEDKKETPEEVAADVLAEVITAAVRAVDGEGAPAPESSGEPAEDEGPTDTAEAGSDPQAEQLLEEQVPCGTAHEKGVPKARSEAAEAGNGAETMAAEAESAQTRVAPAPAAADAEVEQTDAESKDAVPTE
Sequence of UniProt Q12142 (whole entry, looked up): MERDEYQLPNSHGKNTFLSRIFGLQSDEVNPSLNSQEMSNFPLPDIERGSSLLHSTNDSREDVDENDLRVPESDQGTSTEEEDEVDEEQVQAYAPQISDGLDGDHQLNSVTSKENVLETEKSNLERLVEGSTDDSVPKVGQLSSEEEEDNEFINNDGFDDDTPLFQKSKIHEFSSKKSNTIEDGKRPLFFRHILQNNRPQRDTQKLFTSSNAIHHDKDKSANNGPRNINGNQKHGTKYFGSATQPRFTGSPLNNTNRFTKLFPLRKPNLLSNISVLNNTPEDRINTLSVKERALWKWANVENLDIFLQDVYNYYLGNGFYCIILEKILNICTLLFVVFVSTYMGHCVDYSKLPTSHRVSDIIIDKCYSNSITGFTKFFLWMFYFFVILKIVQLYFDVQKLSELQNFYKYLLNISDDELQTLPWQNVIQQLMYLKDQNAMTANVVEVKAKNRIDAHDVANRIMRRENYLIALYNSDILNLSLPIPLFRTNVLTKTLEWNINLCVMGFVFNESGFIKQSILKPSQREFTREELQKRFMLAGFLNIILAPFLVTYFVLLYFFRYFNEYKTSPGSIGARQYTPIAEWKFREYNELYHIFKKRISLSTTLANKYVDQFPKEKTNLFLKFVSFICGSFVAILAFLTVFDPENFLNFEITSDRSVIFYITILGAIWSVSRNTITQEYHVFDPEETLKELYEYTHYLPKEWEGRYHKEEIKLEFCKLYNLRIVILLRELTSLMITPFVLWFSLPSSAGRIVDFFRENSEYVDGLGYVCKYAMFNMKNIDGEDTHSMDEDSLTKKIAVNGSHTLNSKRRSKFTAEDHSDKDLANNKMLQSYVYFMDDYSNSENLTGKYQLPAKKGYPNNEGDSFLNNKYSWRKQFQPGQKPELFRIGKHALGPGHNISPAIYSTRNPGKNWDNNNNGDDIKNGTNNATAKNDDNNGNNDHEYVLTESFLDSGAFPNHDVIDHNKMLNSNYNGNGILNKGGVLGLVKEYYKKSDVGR
Sequence of UniProt P00634 (whole entry, looked up): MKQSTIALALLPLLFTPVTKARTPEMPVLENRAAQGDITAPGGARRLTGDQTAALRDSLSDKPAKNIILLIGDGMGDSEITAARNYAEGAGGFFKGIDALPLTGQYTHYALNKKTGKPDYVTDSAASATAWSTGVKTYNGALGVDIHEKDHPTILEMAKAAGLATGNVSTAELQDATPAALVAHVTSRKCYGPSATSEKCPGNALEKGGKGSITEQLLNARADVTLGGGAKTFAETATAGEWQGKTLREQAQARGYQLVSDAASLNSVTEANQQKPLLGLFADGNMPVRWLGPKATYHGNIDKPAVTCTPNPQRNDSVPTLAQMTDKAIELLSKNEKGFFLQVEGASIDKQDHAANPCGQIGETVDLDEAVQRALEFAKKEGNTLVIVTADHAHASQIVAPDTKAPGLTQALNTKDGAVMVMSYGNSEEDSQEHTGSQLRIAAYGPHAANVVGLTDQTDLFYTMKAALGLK
Sequence of UniProt P25454 (whole entry, looked up): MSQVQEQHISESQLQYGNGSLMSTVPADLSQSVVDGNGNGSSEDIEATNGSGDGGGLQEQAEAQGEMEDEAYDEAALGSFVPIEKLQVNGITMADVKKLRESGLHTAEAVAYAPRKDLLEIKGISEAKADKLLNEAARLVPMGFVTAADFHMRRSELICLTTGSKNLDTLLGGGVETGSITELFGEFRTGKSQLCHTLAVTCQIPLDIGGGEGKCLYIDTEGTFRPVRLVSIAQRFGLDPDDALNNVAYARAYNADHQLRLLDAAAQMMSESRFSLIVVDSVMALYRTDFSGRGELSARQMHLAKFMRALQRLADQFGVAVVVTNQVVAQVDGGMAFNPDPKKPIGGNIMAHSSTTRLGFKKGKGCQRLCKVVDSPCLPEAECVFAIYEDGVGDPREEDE
Sequence of UniProt P35610 (whole entry, looked up): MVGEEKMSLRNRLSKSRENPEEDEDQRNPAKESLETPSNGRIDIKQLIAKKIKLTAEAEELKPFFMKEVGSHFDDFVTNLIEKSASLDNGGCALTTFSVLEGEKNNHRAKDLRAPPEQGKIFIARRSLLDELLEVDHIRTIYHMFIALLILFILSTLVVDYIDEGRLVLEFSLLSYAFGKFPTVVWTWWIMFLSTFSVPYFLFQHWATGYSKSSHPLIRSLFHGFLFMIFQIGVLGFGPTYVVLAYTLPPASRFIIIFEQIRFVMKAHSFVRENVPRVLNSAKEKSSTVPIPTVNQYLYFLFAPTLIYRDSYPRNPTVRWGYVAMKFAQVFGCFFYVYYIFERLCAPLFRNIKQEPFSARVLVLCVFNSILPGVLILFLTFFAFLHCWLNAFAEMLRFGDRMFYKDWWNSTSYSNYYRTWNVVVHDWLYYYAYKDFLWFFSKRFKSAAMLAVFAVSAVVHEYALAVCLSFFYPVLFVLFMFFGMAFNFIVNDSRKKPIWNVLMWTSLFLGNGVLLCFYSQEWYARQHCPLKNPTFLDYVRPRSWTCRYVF
Sequence of UniProt P30043 (whole entry, looked up): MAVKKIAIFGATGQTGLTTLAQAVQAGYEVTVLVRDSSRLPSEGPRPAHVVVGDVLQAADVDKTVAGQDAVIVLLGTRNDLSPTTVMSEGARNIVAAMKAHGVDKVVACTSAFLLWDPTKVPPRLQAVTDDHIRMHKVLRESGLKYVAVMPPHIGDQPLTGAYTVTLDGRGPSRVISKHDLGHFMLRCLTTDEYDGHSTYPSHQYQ
Sequence of UniProt P05091 (whole entry, looked up): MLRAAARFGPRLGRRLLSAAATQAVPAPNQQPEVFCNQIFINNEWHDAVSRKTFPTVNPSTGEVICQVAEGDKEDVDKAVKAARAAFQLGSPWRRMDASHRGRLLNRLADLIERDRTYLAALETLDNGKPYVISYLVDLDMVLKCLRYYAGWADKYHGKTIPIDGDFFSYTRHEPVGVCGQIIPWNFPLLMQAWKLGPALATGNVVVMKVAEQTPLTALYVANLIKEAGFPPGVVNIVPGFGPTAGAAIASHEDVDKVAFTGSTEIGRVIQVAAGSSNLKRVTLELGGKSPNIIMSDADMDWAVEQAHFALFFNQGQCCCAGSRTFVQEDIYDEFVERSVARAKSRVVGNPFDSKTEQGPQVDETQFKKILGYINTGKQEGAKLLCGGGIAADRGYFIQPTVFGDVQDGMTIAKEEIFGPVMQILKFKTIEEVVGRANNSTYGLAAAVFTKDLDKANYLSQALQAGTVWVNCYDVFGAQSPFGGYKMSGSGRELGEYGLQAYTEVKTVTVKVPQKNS
Sequence of UniProt P0A9K9 (whole entry, looked up): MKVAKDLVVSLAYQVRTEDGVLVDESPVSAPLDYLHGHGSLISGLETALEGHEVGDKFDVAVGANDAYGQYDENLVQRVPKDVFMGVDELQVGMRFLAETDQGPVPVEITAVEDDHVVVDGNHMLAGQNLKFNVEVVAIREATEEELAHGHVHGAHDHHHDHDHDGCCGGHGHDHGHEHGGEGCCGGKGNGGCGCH

Substance | target or system | test | system | setting | how to read | quantity | value
GGDDLGANDELISFKDEGEQEEK (TCF7L2 8-30 (UniProt Q9NQB0); C-terminal fluorescein label; sequence looked up) | CTNNB1 135-668 (Homo sapiens, UniProt P35222) | fluorescence polarisation | peptide | – | – | binding | binds
RAD51 (Saccharomyces cerevisiae, UniProt P25454) | MLH1/MLH3 (Saccharomyces cerevisiae) | co-IP | – | – | – | binding | binds
B1 (dnaJ2) | PhoA mature , unfolded 23-471 (Escherichia coli, UniProt P00634) | NMR titration | – | – | – | binding | binds
B2 (ND6 1-185) | ND1 1-341 (Yarrowia lipolytica, UniProt Q9B6E8) | cryo-EM | – | – | – | binding | binds
B3 (POLDIP2 52-368) | CLPX/CLPP CLPP 14-mer, CLPX hexamer, ATPγS-bound 65-633 (Homo sapiens) | co-IP | – | – | – | binding | binds
GSGAGQITKV | human SCRIB PDZ3-4 tandem (MBP fusion) | automated holdup | peptide, crude extract | concentration not given, uncorrected, unit not given | relative to: biotin control resin, higher = stronger binding | binding intensity | 0.0585
B4 (STBD1 200-358) | GABARAPL1 fragment (Homo sapiens) | ITC | – | – | – | binding | binds
LNTRGGSFQDFRAEFIQRSTQFLTSLPEFCKEVVSRILGRSTAQRGGYSAV (ATG27 221-271 (Saccharomyces cerevisiae, UniProt P46989); sequence looked up) | ATG9 2-318 (Saccharomyces cerevisiae, UniProt Q12142) | pull-down | – | – | – | binding | binds
B5 (PRDX6) | ALDH2 (Homo sapiens, UniProt P05091) | co-IP | – | – | – | binding | binds
B6 (SNAPC3) | SNAPC4 1-505 (Homo sapiens, UniProt Q5SXM2) | cryo-EM | – | – | – | binding | binds
B7 (acpP crypto-AcpP 1-78) | entE 1-536 (Escherichia coli, UniProt P10378) | fluorescence emission spectra, solvatochromic probe | – | – | – | binding | binds
B8 (POLR2A 1356-1767) | AKAP8 (Homo sapiens, UniProt O43823) | pull-down | – | – | – | binding | binds
PKRSFIESNV | human SCRIB PDZ3-4 tandem (MBP fusion) | automated holdup | peptide, purified PDZ protein | concentration not given, unit not given | relative to: biotin control resin, higher = stronger binding | binding intensity | 0.945
B9 (PUM1 589-1186) | CNOT1/CNOT2/CNOT3 NOT module 1833-2361 | cross-linking | – | – | – | binding | binds
MEELQDDYEDMMEENLEQEEYEDPDIPESQMEEPAAHDTEATATDYHTTSHPGTHK (SLC4A1 1-56 (Homo sapiens, UniProt P02730); sequence looked up) | BLVRB (Homo sapiens, UniProt P30043) | NMR titration | peptide | – | – | binding | binds
PSMA2 (Homo sapiens, UniProt P25787) | T1, PSMG1/PSMG2 heterodimer (Homo sapiens) | cryo-EM | – | – | – | binding | binds
QSTGTEPFFKQKSLLL (POLH 524-539 (Homo sapiens, UniProt Q9Y253); sequence looked up) | REV1 1158-1251 (Homo sapiens, UniProt Q9UBZ9) | NMR chemical shift perturbation | peptide | – | – | binding | binds
EDDICILNHEK (AZI2 6-16 (Homo sapiens, UniProt Q9H6S1)) | RB1CC1 1490-1594 (Homo sapiens, UniProt Q8TDY2) | SEC | – | – | – | binding | binds
B10 (exbD 43-141) | tonB 34-239 (Escherichia coli, UniProt P02929) | NMR titration | – | – | – | binding | binds
B11 (WRKY46) | MYC2 (Arabidopsis thaliana, UniProt Q39204) | pull-down | – | – | – | binding | binds
B12 (HypB N-terminal extension 2-76) | slyD (Escherichia coli, UniProt P0A9K9) | SEC | – | – | – | binding | binds
FTTVDFSSISTPHYEDIPFTRT (PPARG residues 65-86 (Homo sapiens); N-acetyl, pT75) | PIN1 (Homo sapiens, UniProt Q13526) | NMR | peptide | – | – | binding | binds
FAEKFKEAVKDYFAKFWDPAAEKLKEAVKDYFAKLWD (reversed nanodisc peptide NSPr) | SOAT1 (Homo sapiens, UniProt P35610) | native gel | peptide | – | – | binding | binds
B13 (PUM1 701-774) | CNOT1/CNOT2/CNOT3 NOT module 1833-2361 | pull-down | – | – | – | binding | binds

Repeated from above:
Substance | target or system | test | system | setting | how to read | quantity | value
PSMA2 (Homo sapiens, UniProt P25787) | T1, PSMG1/PSMG2 heterodimer (Homo sapiens) | cryo-EM | – | – | – | binding | binds
B4 (STBD1 200-358) | GABARAPL1 fragment (Homo sapiens) | ITC | – | – | – | binding | binds
B13 (PUM1 701-774) | CNOT1/CNOT2/CNOT3 NOT module 1833-2361 | pull-down | – | – | – | binding | binds
